Experimental data pooled from the literature.
Every numbered part comes from another study and shows a few of its results, in no order.

Block 1
Target: PABPC1L2, full length, GST fusion (mouse, UniProt A0ABA7IW68)
Method: RNAcompete
Form: RNA
Matrix: in vitro
Tested at: 20 nM
Notes: 7-mer, probes averaged, single round
Baseline: mean of 7-mers
Direction: higher = stronger binding
Endpoint: 7-mer Z-score
Residues (chain): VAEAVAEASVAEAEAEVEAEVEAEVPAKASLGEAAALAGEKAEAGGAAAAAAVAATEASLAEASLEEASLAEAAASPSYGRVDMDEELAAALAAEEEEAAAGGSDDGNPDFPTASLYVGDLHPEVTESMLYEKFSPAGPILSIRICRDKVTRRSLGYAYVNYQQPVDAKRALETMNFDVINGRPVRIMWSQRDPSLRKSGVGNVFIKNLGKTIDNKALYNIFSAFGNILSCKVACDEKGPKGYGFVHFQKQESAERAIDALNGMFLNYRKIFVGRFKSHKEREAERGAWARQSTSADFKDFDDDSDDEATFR
Strand = GAAUACU; value = -0.0772
Strand = GCGCUGG; value = 0.0623
Strand = GACACCC; value = -0.327
Strand = AUACUAU; value = -0.151
Strand = UCACAAC; value = -0.202
Strand = GCGACUG; value = 0.0315
Strand = GUUCGAA; value = -0.104
Strand = GGAAUUC; value = -0.141
Strand = GUAUACG; value = -0.15
Strand = GCGGAAU; value = 0.329
Strand = UUCCUGC; value = -0.251
Strand = CCACACA; value = -0.229
Strand = UGACUGU; value = -0.306
Strand = AAUAGGG; value = 0.644
Strand = UCCCCGA; value = -0.302
Strand = CUCUGCG; value = -0.229

Block 2
Target: RNA binding protein fox-1 homolog 2, RRM domain, GST-SBP tag (RBFOX2, Homo sapiens, UniProt O43251-10, residues 100-194)
Method: RNA Bind-n-Seq
Form: RNA
Matrix: in vitro
Tested at: 365 nM
Notes: natural RNA segment, single round, ends assumed
Baseline: no-protein control
Direction: higher = stronger binding
Endpoint: RBNS enrichment (R)
Shared flanks, not repeated: GGGAGUUCUACAGUCCGACGAUC … UGGAAUUCUCGGGUGCCAA
Residues (chain): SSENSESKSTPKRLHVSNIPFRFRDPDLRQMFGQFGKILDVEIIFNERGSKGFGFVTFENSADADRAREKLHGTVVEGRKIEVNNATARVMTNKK
Strand = UUGUGAGUCUGCUAAGGUAGCUCUCACACACCUCGGCUCUGGGGUUGAUACCUGAGCCUGCAAUAGAGCCCUGAAAUCAAGAGCAUGGCUUGAGUGUGUGAAUAUGAUGU; value = 2.3
Strand = AGCCCCUCCCCCAACAAGAUCUCUUGGACUCAGGCCUCAGAGCCUGGCCUGGUUGUGAGUGUGUGUCCCUGUGUGUGUGUUGCGGGAGGGGAGGACUGGGGCUGGAAGUC; value = 0.244
Strand = GAUAACAAGGUUCUAAUAGUGUUUAAAUGUACUGGUAACCUGGUUCCAAUAGUUGUGUUUGCCCAAGCCUUUCUCGGCAUCAUCUUGUAUUCCUUAUCAGAUAGUAAGUA; value = 0.232
Strand = GGAAAAAGCUCGCAUUUUCAUCGUGCCUCCUGGAGUAGAGAAAUGGGAACGCCUCUCCCCUCCUUGUCCUUUCCAGUGGGUCUCAUCCCUUAUCUCGCUCUGGUGUUCAC; value = 1.09
Strand = CCAGCCCCCUAGGAACGUGUUACUAGCUCCUAAUAGCUUGGUUGAAGCUCCUUGGCCUCUGAGGACCCCUAAUAACCCAGAAUCUUGGGGAGCCCUUUCCUUUGAGAAUA; value = 0.408
Strand = GUUAUGCCUUCUGGCUACUACAGAAUCUCCGCAGACCUUUUAGUUAUGAGUAGAAGCAAUAAGAAGGUGUCCUUAUGGUCUUAGGAAUAAUAGUUCCAAUGUAUUGGCAU; value = 1.05
Strand = AUCUGUAUAUAUUAUUUGAUAUUCAGAGAAUCUAAAGCACUCGUCUACUGUUUUAAUGAGAUUUAACAGCUUUUAACAGUGAGUUUCGUUUGUAAACUGCUUGAAGUCUG; value = 0.324
Strand = UGGGAUGGAGAACCACUCUGUCCAGAUCUGGGGUUGGGUCAUGACACCAGCUACCAAUUUUAGAAUAUUAUUUCUUGGUUUCUUUAUGAAAAAUGGGUGCUAGUGGUAAU; value = 0.343
Strand = GUUUUCCGAUGAUGAGCUUCCCUAGACAGAUCAUGCUCCACGUCCACGGUGUUCUCAGCACCGUGAUCUGUCAGCUGUGCUCUCUUAGCCUCCAGCCUGAGCUCUCAAGA; value = 0.289
Strand = CGGCACCUUCCUAGGCCUGGGCACAGUCACUGGCUCUGUUGCCAUCUACAUAGCUUUCUCUCUCCAGUGCCUCUACUACGUGAGGGAGGCCCAUGGCAUUGUGGUGACGG; value = 0.286
Strand = UUAGACAAAUACAGCCCACUUUGGAUUUCAUCCUAGUGAACAGACUAAAACUUUGCAGUAAAAUACCUAUUUCUACAAAGCAAGGUUUGCCUGCCUCGGUUGGGGAAACC; value = 0.229
Strand = UUUGUUUACUAAGGGUCUGCUUAGGAAGAAUUCAGGGAGGAACUGUGCUGUGGUGUGACCAAUGAAAAGCUGCAGUCCAGUUUUGUCCCUGGAACCUGUCCUGCACUCUU; value = 0.36

Block 3
Target: RING finger protein unkempt homolog, zinc fingers 1-6, GST-SBP tag (UNK, Homo sapiens, UniProt Q9C0B0, residues 30-357)
Method: RNA Bind-n-Seq
Form: RNA
Matrix: in vitro
Tested at: not given
Notes: RNA with constant flanks, ends assumed
Baseline: input RNA pool
Direction: higher = stronger binding
Endpoint: bound/input enrichment
Shared flanks, not repeated: GGGAGUUCUACAGUCCGACGAUC … CAACAGAGGAUUGAGCAUCA
Residues (chain): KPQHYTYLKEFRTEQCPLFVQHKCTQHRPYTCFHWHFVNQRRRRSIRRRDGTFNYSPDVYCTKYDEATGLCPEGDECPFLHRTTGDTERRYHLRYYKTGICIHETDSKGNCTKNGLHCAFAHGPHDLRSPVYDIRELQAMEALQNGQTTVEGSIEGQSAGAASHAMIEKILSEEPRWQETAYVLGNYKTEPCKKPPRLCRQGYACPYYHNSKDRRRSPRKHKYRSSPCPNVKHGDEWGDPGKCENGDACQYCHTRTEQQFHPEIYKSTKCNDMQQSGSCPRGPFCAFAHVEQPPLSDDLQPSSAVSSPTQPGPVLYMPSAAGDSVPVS
Strand = GCAUAUGGUUAUCGAGGAAAGGACUGUAGAGCUAAUGUUUACCUUCUUCCGACCGGGAAAACCGUUUAUUUCAUUGCAUCAGUAGUAGUACUAUUUAAUUAUGAGGAGAGAACUCAGCGA; value = 3.09 ratio
Strand = UGUGUCUUACGUGCCACCACGGCGUUGUACCUGUAGGACUCUCAUUCGGGAUGAUUGGAACCGCUUCUGGAAUUUGUUCAAGUUUUGGGUAUGUUUAAUCUGUUAUGUACUAGUGUUCUG; value = 0.407 ratio
Strand = ACUUUUGAUUUCUCAGAAGAGGAGGAUGAUGAUGCUGCUGCUGCUGAUGACAGUAAUGAUUCCGAAGAACUGAAAGUUAAAGCAUCUCCCAUAACAAAUGAUGGGGAAGAUGAAUUUGUU; value = 0.346 ratio
Strand = UCUUUAUACAGACUGAGGCUCAGUCUGCCUGCCCGUCUCUGGGGUGUUCCAUCUCAGCAUCCGGUCAGUUGGUUCUGUUGAGUGUCUUCAGGUCCACCUCCAGCUGGUGAUUAUUUCAGA; value = 0.0884 ratio
Strand = GGAUGGCACAGCUUCUGGAUCUAUCUGUUGAUGAGUCCGAAGCCUUUCUCUCAAAUCCCGCCGUUAACAAGACCAUCUUUGCUAAAGUAGACAGAUUAGCAGGAAUUAUCAACUUCCAGA; value = 0.267 ratio
Strand = AUGUUAAGCCAUUCUUGAUUGGACCUCAUAGCUUAUUUUAGUUAAUCUUUUUUUUGUCUUUCCGCCUUACCACCUUUUAAAAAAUUUGUUAUUCUCCAGAAACAGUAAAUAGGUGAGUAG; value = 119 ratio
Strand = CUCCCUGGAGGAGUCAAGGCCUUGAAGCUACCUAAUGAAGAGGCCACCACACCAUCCGACUCCGCUUUGCAAGGUGGACACUCCACACUGGUAGAAGACAUCACAAAUUUUCAGGGUAGC; value = 0.119 ratio
Strand = ACUUUUCCAGUAUUUUAGUGGACCCUGAAAUGUGUGUGAUGUGACAUUUGUUAUUUUCAUCCGCAAAAAAAAGAGUUGUAUGAUCUGUGCCUUUUUUAUAUCUUGGCAGGUAGGAAUAUU; value = 0.324 ratio
Strand = AUAAUGAUGCUUUGCGAGGCUCGAAGAGCAGUUCAGAAGAAUAUGAUAUUUAUUGAUCAAAACCGAGUUAUGCUUAAAUAUCUCUUUCCUUUGAAUGAAAUUGUGGUAGAUUUUUAUGAC; value = 0.217 ratio
Strand = AGACGAAGCUAUGGAGAUAUUUUGCAUAGAAUGAAGGAUCUCUGCAGAUACAUGAACAACUUUGACCGUGAAGCACAUGCAAAAUAUAAAAACCAAGUGGUGUAUUCCACCAUGCUGGUC; value = 0.104 ratio
Strand = GGCUUUGCGCUACUCUUCUACCUUGAACAGCUUCUUGGGGGACCAGAGGUGUUUCCCGGAUUCUUAAAGGCUUAUGUUAAGAAGUUUUCCUACCAAAGUGUAACGACUGAUGACUGGAAG; value = 0.181 ratio

Block 4
Target: Centromere-binding protein 1, full length, His-tagged (CBF1, Saccharomyces cerevisiae, UniProt P17106, residues 1-351)
Sequence of UniProt P17106 (whole entry, looked up): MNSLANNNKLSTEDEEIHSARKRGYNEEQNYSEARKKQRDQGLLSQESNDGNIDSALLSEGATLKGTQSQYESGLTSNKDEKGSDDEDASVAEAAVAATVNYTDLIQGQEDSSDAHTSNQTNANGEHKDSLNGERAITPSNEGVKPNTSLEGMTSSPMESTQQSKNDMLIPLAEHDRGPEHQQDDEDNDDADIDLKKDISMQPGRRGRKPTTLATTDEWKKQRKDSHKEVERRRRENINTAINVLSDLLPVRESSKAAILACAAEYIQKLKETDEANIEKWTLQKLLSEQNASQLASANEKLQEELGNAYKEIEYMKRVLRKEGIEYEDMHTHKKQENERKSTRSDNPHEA
Method: competition protein-binding microarray
Form: double-stranded DNA, one strand shown
Matrix: in vitro
Tested at: 2 µM
Notes: whole 60-bp probe, lowest competitor level
With: Pho4 competitor, 0.05 µM
Direction: higher = stronger binding
Endpoint: fluorescence intensity
Shared flanks, not repeated: … GTCTTGATTCGCTTGACGCTGCTG
Strand = CTAACGAAGGTTTGCAGTGTGGGTGACAAGCCAAGT; value = 68.8 a.u.
Strand = CAGTAACAGGTACAGCACGTGCAAAATCAGGATGAC; value = 1830 a.u.
Strand = TTTTCTTTTACCGGCCACGTGAAATGATGATAAAAA; value = 1450 a.u.
Strand = CGTCCTAGTGATTGTCACGTGACTTCCATGAGGAAG; value = 24800 a.u.
Strand = CAGCGCGATCAGTTGCACATGGCGCGACTGCAAACC; value = 98.3 a.u.
Strand = AAAGCGGTAATTTTTCACGTGGTCTCACATATCTAT; value = 1800 a.u.
Strand = AAATTACTAAGTTGGGATGTGGGTGACGCCGTATGA; value = 68.3 a.u.
Strand = CTTCTGTAAATTTCTCACGTGTTTTGACGCGCCCCG; value = 1230 a.u.
Strand = AAATTACTAAGTTTTCACGTGGCATACCCCGTATGA; value = 859 a.u.
Strand = AAATTACTAAGTTGTAAGGTGGGTGACGCCGTATGA; value = 64.8 a.u.
Strand = ACAAGTGCCGACTGACTCGTGTCCTGGTAATAACAG; value = 110 a.u.
Strand = ATACCAGCACCAGACAACATGGCTCGGTAACCACCA; value = 61.7 a.u.
Strand = CTACAGACTTAGCACCACATGGGCACCACCAAGGTT; value = 72.6 a.u.
Strand = TGAAAAGTGTGCTGGCACGGGATCGTTACTAATCCA; value = 305 a.u.
Strand = TGGTAATAACTGGAGCATGTGGCTGCGAATGTCCCG; value = 134 a.u.
Strand = CTTTCCCGATCTTGACTCGTGGGTGTAGCACATTTG; value = 76.1 a.u.
Strand = GTCGACCATTTTGCCACCGTGTCTGTGTGCTCGAGC; value = 70.5 a.u.
Strand = AGGTTAGGTGTCCATCACGTGCTAAAACCAGCGACT; value = 6170 a.u.
Strand = AAAACGAGCCTCCATCACGTGCAAAAAAGAAATAGT; value = 4290 a.u.

Excerpt of the above (block 4):
Strand = AAAGCGGTAATTTTTCACGTGGTCTCACATATCTAT; value = 1800 a.u.
Strand = CAGCGCGATCAGTTGCACATGGCGCGACTGCAAACC; value = 98.3 a.u.
Strand = TGAAAAGTGTGCTGGCACGGGATCGTTACTAATCCA; value = 305 a.u.
Strand = CTTCTGTAAATTTCTCACGTGTTTTGACGCGCCCCG; value = 1230 a.u.
Strand = CTTTCCCGATCTTGACTCGTGGGTGTAGCACATTTG; value = 76.1 a.u.
